Measurements pooled from the literature.
Each line is one published result; not all experiments were run side by side.
PFF0160c E182D: Dihydroorotate dehydrogenase (quinone), mitochondrial (PFF0160c, Plasmodium falciparum, UniProt Q08210, E182D)
CTSL: Procathepsin L (CTSL, Homo sapiens, UniProt P07711)
Chain of UniProt P07711 (whole entry, looked up): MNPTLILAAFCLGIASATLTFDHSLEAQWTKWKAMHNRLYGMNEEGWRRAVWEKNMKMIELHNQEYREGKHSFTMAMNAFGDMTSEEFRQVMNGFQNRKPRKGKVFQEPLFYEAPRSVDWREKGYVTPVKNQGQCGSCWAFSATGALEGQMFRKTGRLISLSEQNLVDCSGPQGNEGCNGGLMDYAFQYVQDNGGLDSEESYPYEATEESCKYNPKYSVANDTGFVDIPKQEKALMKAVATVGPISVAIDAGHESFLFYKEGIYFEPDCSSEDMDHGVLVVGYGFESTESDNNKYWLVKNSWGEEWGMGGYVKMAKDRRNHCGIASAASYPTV
TMPRSS2: Transmembrane protease serine 2 (TMPRSS2, Homo sapiens, UniProt O15393)
Chain of UniProt O15393 (whole entry, looked up): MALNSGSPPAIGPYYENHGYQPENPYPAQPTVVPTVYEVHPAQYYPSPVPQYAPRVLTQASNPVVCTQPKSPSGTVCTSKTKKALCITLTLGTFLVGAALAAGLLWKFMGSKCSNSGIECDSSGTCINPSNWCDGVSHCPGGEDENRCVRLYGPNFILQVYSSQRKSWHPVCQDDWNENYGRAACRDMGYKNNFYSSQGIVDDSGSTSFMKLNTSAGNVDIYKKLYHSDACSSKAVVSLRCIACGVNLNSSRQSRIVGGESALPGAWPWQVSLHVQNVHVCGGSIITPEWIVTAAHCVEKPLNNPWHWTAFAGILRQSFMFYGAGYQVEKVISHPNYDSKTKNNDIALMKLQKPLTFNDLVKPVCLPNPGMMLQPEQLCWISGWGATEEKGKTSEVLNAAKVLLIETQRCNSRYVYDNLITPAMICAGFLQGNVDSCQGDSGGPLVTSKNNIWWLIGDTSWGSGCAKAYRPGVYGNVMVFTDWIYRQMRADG
Chain of UniProt P35462 (whole entry, looked up): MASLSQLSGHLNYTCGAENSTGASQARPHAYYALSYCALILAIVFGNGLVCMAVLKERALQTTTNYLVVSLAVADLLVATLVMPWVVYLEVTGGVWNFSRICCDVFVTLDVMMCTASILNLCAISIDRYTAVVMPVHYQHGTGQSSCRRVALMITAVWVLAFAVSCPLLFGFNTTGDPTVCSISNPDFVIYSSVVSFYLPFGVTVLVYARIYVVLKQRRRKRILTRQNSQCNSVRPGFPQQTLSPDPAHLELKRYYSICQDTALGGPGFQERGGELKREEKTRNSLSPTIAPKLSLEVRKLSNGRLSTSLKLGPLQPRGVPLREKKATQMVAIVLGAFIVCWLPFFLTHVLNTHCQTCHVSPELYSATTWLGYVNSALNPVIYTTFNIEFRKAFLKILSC
Chain of UniProt Q14432 (whole entry, looked up): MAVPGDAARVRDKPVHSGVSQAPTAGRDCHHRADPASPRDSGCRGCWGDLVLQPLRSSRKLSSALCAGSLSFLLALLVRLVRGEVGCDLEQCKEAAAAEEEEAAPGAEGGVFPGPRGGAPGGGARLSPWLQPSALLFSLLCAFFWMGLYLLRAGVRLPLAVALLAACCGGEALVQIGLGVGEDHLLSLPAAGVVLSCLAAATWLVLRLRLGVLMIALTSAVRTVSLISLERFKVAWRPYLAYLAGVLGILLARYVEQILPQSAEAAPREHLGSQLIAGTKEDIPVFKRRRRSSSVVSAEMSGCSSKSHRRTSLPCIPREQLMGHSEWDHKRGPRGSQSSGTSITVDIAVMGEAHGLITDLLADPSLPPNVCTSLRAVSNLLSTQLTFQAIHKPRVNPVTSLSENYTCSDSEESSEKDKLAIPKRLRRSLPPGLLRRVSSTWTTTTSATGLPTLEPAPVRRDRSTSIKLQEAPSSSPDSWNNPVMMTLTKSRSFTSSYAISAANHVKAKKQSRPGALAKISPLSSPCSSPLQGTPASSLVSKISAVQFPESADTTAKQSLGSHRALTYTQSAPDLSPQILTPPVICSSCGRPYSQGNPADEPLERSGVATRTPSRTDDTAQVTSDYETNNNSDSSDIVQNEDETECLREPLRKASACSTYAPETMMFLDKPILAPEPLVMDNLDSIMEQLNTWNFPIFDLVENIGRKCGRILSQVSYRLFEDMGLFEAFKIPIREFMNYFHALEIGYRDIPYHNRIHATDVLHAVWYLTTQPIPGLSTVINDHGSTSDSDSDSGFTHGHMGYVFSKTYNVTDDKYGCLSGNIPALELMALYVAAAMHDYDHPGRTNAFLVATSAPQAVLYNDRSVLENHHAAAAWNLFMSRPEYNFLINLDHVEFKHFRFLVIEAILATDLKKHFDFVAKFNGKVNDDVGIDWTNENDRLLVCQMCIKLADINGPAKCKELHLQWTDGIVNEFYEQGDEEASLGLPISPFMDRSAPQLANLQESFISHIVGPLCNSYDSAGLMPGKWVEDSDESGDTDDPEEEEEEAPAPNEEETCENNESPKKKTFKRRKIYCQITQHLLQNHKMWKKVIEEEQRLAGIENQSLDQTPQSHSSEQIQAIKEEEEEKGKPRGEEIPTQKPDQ
Chain of UniProt P14416 (whole entry, looked up): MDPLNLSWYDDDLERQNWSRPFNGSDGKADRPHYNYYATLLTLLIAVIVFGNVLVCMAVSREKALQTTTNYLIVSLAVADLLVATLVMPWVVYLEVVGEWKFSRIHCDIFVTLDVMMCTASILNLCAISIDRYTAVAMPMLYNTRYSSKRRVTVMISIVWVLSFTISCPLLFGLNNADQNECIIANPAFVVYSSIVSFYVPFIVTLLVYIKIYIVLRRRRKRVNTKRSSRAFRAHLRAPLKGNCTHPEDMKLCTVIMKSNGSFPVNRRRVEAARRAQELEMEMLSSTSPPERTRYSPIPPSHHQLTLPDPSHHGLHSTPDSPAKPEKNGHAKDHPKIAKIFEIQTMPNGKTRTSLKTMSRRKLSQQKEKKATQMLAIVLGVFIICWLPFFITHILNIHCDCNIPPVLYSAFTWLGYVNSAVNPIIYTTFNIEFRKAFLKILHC
Chain of UniProt P41144 (whole entry, looked up): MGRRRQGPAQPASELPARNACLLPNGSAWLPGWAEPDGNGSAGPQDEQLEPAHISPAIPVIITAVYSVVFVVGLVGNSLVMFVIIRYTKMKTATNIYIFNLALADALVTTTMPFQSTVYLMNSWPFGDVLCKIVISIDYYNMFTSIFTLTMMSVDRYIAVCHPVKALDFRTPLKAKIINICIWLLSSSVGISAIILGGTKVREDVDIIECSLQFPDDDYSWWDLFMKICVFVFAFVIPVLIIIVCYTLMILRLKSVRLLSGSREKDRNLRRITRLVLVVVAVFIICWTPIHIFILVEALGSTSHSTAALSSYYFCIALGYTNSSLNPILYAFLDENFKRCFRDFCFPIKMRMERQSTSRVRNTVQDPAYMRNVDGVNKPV
Chain of UniProt Q96D53 (whole entry, looked up): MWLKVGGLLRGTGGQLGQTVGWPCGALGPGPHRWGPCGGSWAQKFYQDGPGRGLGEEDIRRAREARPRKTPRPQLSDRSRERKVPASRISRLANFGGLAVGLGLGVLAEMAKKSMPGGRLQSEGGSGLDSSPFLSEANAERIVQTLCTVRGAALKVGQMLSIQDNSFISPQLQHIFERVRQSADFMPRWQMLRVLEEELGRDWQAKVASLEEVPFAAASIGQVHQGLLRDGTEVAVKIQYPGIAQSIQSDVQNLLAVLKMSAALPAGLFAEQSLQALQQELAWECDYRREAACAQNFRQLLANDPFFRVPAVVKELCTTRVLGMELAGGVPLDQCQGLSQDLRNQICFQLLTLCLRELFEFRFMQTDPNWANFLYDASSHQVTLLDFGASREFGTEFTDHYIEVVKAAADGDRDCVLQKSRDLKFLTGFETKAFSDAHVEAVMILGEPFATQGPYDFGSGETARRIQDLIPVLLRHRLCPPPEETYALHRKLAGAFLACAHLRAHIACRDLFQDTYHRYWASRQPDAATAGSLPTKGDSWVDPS
Chain of UniProt Q13976 (whole entry, looked up): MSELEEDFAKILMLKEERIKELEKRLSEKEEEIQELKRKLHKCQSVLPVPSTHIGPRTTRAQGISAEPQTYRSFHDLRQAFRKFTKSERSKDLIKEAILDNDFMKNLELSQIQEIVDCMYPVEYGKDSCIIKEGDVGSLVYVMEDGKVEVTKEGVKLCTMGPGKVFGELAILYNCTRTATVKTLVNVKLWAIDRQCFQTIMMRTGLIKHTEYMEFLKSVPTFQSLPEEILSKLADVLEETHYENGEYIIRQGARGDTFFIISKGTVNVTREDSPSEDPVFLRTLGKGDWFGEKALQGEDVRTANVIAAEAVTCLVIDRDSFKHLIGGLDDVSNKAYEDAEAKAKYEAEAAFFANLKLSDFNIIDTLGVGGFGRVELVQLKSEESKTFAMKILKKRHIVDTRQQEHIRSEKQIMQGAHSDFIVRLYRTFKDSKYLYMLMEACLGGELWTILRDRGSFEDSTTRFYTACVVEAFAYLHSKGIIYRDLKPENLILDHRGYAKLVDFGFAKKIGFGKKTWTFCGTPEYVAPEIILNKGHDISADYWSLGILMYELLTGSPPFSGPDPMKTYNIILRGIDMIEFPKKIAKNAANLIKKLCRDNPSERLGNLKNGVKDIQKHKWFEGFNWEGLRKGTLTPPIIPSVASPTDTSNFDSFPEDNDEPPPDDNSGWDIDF
Chain of UniProt P21554 (whole entry, looked up): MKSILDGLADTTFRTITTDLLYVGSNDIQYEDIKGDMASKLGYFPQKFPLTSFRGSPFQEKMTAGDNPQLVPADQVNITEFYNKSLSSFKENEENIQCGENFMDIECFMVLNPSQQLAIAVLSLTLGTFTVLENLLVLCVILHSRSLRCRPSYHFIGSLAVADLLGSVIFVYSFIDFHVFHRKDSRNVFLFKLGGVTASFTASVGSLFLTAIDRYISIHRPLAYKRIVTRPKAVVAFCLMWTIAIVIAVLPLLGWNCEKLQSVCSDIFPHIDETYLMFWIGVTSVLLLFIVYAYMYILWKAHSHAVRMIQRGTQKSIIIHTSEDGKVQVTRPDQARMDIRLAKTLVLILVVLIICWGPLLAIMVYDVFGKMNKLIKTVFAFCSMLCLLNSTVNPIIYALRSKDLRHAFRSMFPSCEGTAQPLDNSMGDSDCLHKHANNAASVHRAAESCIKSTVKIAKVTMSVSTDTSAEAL

SMILES | tested on | test | system | conditions | measurement | value
N.N.[Cl][Pt][Cl] | HuT78 | cell growth or viability, ATP luminescence | – | 72 h | IC50 | 0.82 µM
[2H]c1c([2H])c([C@]2([2H])CCCN2C(=O)C(C)(C)Oc2ccc3cn[nH]c3c2)c([2H])c([2H])c1C([2H])([2H])[2H] | Serine/threonine-protein kinase N2 (PKN2, Homo sapiens, UniProt Q16513) | binding, competition with immobilised ligand | – | 1 µM | remaining binding | 73%
O=C(Nc1cccc(CN2CCN(C(=O)c3cccc(Cl)c3)CC2)c1)c1ccco1 | PFF0160c E182D | enzyme activity, inhibitor, absorbance | – | – | IC50 | 9.55 µM
CCCCC/C=C\C/C=C\C/C=C\Cc1ccccc1CCCC(=O)OC(CO)CO | Cannabinoid receptor 1 (CNR1, Homo sapiens, UniProt P21554) | β-arrestin recruitment, agonist | – | – | Emax | 4%
NCCc1c[nH]c2ccc(O)cc12 | 5-hydroxytryptamine receptor 2A (Htr2a, Mus musculus, UniProt P35363) | G protein activation, agonist, BRET | – | – | Emax | 100%
NCc1c[nH]c2ccccc12 | CTSL | enzyme activity, inhibitor | – | 100 µM | remaining activity | 130%
CN1CCC[C@H]1c1cccnc1 | D(3) dopamine receptor (DRD3, Homo sapiens, UniProt P35462) | ligand displacement | – | 50 µM | inhibition | -1.29%
COC(=O)c1cc(-c2cccc(NC(=O)Nc3ccc(Cl)cc3)c2)on1 | Mycobacteroides chelonae | microbial growth, broth dilution | ATCC35752 | 48 h | MIC | > 64 µg/mL
COc1ncccc1-c1cnn2ccc(N3CCN(C(=O)OC(C)C)CC3)nc12 | Wee1-like protein kinase 2 (WEE2, Homo sapiens, UniProt P0C1S8) | binding, competition with immobilised ligand | – | 1 µM | remaining binding | 100%
N=C(N)NCCC[C@H](NC(=O)[C@H](Cc1ccc(O)cc1)NC(=O)[C@H](Cc1ccc(O)cc1)NC(=O)CCc1ccc(O)cc1)C(=O)c1nc2ccccc2s1 | TMPRSS2 | enzyme activity, inhibitor | – | 1 nM | activity vs control | 83%
CC(C)CC(=O)OC[C@H]1O[C@@](C#N)(c2ccc3c(N)ncnn23)[C@H](O)[C@@H]1O | cGMP-inhibited 3',5'-cyclic phosphodiesterase 3A (PDE3A, Homo sapiens, UniProt Q14432) | enzyme activity, inhibitor | – | 20 µM | inhibition | 2%
Cc1nc(-c2nc(NCc3ccncc3)ncc2-c2ccsc2)sc1C | PFF0160c E182D | enzyme activity, inhibitor, absorbance | – | – | IC50 | 3.41 µM
O=CC=Cc1ccccc1 | CTSL | enzyme activity, inhibitor | – | 100 µM | remaining activity | 151%
C[C@H](NC(=O)[C@H](CCC(N)=O)NC(=O)[C@H](CCCNC(=N)N)NC(=O)c1ccccc1)C(=O)NC(CCCNC(=N)N)C(=O)c1nc2ccccc2s1 (some centres unmarked) | TMPRSS2 | enzyme activity, inhibitor | – | 1 nM | activity vs control | 23%
Nc1ncc(-c2nc(N3CCOCC3)nc(N3CCOCC3)n2)c(C(F)F)n1 | Atypical kinase COQ8B, mitochondrial (COQ8B, Homo sapiens, UniProt Q96D53) | binding, competition with immobilised ligand | – | 10 µM | remaining binding | 92%
CC(=O)N[C@@H](CCC(N)=O)C(=O)N[C@@H](Cc1ccccc1)C(=O)N[C@@H](CCCNC(=N)N)C(=O)c1nccs1 | TMPRSS2 | enzyme activity, inhibitor | – | 1 nM | activity vs control | 95%
CN1C(=S)N(c2ccccc2)C(=O)/C1=C1/C(=O)N(C)c2ccc(Cl)cc21 | Acetylcholinesterase (ACHE, Homo sapiens, UniProt P22303) | enzyme activity, inhibitor, Ellman | – | 10 µM | inhibition | 73%
CCN(CC)CCCC[C@H](NC(=O)[C@H](CC(C)C)NC(=O)[C@H](C)NC(=O)[C@H](Cc1ccccc1)NC(=O)c1ccc(C(C)(C)C)cc1)C(=O)N[C@@H](CO)C(=O)OC | Bromodomain-containing protein 2, BD2 (BRD2, Homo sapiens, UniProt P25440) | thermal stability, DSF | – | 25 µM | ΔTm | 0.04 °C
c1cncc([C@@H]2CCCN2)c1 | D(2) dopamine receptor (DRD2, Homo sapiens, UniProt P14416) | ligand displacement | – | 50 µM | inhibition | -1.48%
Cn1ccnc1C(=O)N[C@@H](CCC(N)=O)C(=O)N[C@@H](Cc1ccccc1)C(=O)N[C@@H](CCCNC(=N)N)C(=O)c1nc2ccccc2s1 | TMPRSS2 | enzyme activity, inhibitor | – | 1 nM | activity vs control | 88%
Cc1nn(C)cc1-c1nc2c(N3CCN(Cc4ccc(Cl)cc4)CC3)c(Cl)cnc2[nH]1 | Epidermal growth factor receptor (EGFR, Homo sapiens, UniProt P00533, A750P/del747-749) | binding, competition with immobilised ligand | – | 1 µM | remaining binding | 100%
CC(C)[C@H](NC(=O)[C@H](Cc1ccc(O)cc1)NC(=O)[C@@H](N)Cc1ccc(O)cc1)C(=O)N[C@@H](CCCNC(=N)N)C(=O)c1nc2ccccc2s1 | TMPRSS2 | enzyme activity, inhibitor | – | 1 nM | activity vs control | 101%
CC[C@@H](C)[C@@H]1CN([C@H](Cc2ccc3ccccc3c2)CN2CCC[C@H]2CN2CCNC[C@@H]2CO)CCN1CCc1ccc(Cl)c(Cl)c1 | Kappa-type opioid receptor (OPRK1, Cavia porcellus, UniProt P41144) | ligand displacement, radioligand | – | 0.5 µM, pH 7.5 | remaining binding | 94%
C[C@H](NC(=O)[C@H](CCC(N)=O)NC(=O)[C@H](CCCNC(=N)N)NS(=O)(=O)c1ccccc1)C(=O)N[C@H](CCCNC(=N)N)C(=O)c1nc2ccccc2s1 | TMPRSS2 | enzyme activity, inhibitor | – | 1 nM | activity vs control | 12%
COC(=O)c1cc(-c2cccc(NC(=S)Nc3ccc(F)c(Cl)c3)c2)on1 | Pseudomonas aeruginosa | microbial growth, broth dilution | ATCC27853 | – | MIC | > 64 µg/mL
C[C@@H](O)[C@@H](NC(=O)[C@H](CCc1ccccc1)NC(=O)CCc1ccccc1)C(=O)N[C@@H](CCCNC(=N)N)C(=O)c1nc2ccccc2s1 | TMPRSS2 | enzyme activity, inhibitor | – | 1 nM | activity vs control | 87%
Nc1ccncc1 | Potassium voltage-gated channel subfamily A member 1 (KCNA1, Homo sapiens, UniProt Q09470) | ion current, inhibitor, patch clamp | – | 10 µM | inhibition | 1080%
CCCC(CCC)C(=O)N[C@@H](CCC(N)=O)C(=O)N[C@@H](Cc1ccccc1)C(=O)N[C@@H](CCCNC(=N)N)C(=O)c1nc2ccccc2s1 | TMPRSS2 | enzyme activity, inhibitor | – | 1 nM | activity vs control | 63%
C#Cc1n[nH]c2c(-c3cn(C(C)c4ccccn4)c(=O)[nH]c3=O)cc(F)cc12 (centres unmarked) | cGMP-dependent protein kinase 1 (PRKG1, Homo sapiens, UniProt Q13976) | enzyme activity, inhibitor | – | 1 µM | inhibition | 8.8%

Excerpt of the above:
SMILES | tested on | test | system | conditions | measurement | value
Cc1nn(C)cc1-c1nc2c(N3CCN(Cc4ccc(Cl)cc4)CC3)c(Cl)cnc2[nH]1 | Epidermal growth factor receptor (EGFR, Homo sapiens, UniProt P00533, A750P/del747-749) | binding, competition with immobilised ligand | – | 1 µM | remaining binding | 100%
CC(C)[C@H](NC(=O)[C@H](Cc1ccc(O)cc1)NC(=O)[C@@H](N)Cc1ccc(O)cc1)C(=O)N[C@@H](CCCNC(=N)N)C(=O)c1nc2ccccc2s1 | TMPRSS2 | enzyme activity, inhibitor | – | 1 nM | activity vs control | 101%
